{"data": "Experimental data gathered from unrelated publications", "note": "Protocols differ between the studies behind these lines. ± gives the spread as reported."}
{"Compound": "CC(C)C[C@H](NC(=O)[C@H](CC(C)C)NC(=O)[C@@H](Cc1c[nH]c2ccccc12)NC(=O)[C@@H](NC(=O)[C@@H](Cc1csc2ccccc12)NC(=O)[C@@H](N)CCCCN)[C@@H](c1ccccc1)c1c[nH]c2ccccc12)C(N)=O", "assay": "RP-HPLC Jupiter Proteo", "setting": "acetonitrile/water TFA gradient", "quantity": "HPLC retention", "value": "61 %B"}
{"Compound": "N=C(N)NCCC[C@@H]1NC(=O)[C@H](Cc2c[nH]c3ccccc23)NC(=O)[C@@H](CC2CCCCC2)NC(=O)[C@@H]2CCCN2C(=O)[C@@H](NC(=O)CCc2ccccc2)CCCNC1=O", "system": "C57BL/6J mice, spinal cord", "setting": "intraperitoneal, 1 mg/kg, two-compartment model", "quantity": "apparent peripheral volume (V2/F)", "value": "0.14 µg/(ng/g)"}
{"Compound": "Cc1nc(C)c(C=[N+]([O-])C(C)(C)C)nc1C", "system": "healthy human, both sexes, serum", "setting": "oral, 600 mg twice daily, 7 days", "quantity": "Cmin", "value": "77 ng/mL"}
{"Compound": "CC(C)c1cnc(-c2cc(Cl)ccc2F)cc1Nc1ccncc1C(=O)NC(CO)CO", "assay": "monotherapy, item: rash", "system": "human patients", "setting": "oral, dose not given, grade 5, phase I A", "quantity": "patients with treatment-related adverse event", "value": "0%"}
{"Compound": "C[C@H]1C[C@@H](Oc2cccc(F)n2)CCN1Cc1cnc(N[11C](C)=O)s1", "assay": "ultrafiltration", "system": "rhesus monkey, plasma", "quantity": "fraction unbound", "value": "9.87%"}
{"Compound": "NS(=O)(=O)c1ccc(N2N=C(C(F)(F)F)CC2c2ccc(F)cc2F)cc1 (stereo not drawn)", "system": "Beagle dog, male, arthritis model, plasma", "setting": "oral, 4 mg/kg single dose, day 2", "quantity": "plasma concentration", "value": "274 ± 189 ng/mL"}
{"Compound": "CCCC[C@H](NC(=O)CNC(=O)CNC(=O)CN1CCN(CC(=O)O)CCN(CC(=O)O)CCN(CC(=O)O)CC1)C(=O)N[C@H]1CC(=O)NCCCC[C@@H](C(N)=O)NC(=O)[C@H](Cc2c[nH]c3ccccc23)NC(=O)[C@H](CCCNC(=N)N)NC(=O)[C@@H](Cc2ccccc2)NC(=O)[C@H](Cc2c[nH]cn2)NC1=O [copper-64 labelled]", "system": "female C57 mouse, B16/F1 melanoma", "setting": "intravenous, 0.037 MBq, 4 h", "how to read": "relative to: tumour over blood", "quantity": "uptake ratio", "value": 6.48}
{"Compound": "NC[C@@H](C(=O)Nc1ccc(-c2cn[nH]c2)cc1)c1ccccc1", "assay": "OECD 405, item: Cornea", "system": "New Zealand White rabbit", "setting": "topical, 0.1 %, 73 h, day 4", "how to read": "direction not given", "quantity": "ocular irritation score", "value": 0}
{"Compound": "CCCCCCCCC=CCCCCCCCC(=O)OCC1OC(n2ccc(N)nc2=O)C(F)(F)C1O (stereo not drawn)", "system": "male beagle dog, plasma", "setting": "intravenous, 4 mg/kg", "quantity": "AUC", "value": "3.2 µM·h"}
{"Compound": "N=C(N)NCCC[C@@H]1NC(=O)[C@H](CCCCNC(=O)CC[C@H](NC(=O)CN2CCN(CC(=O)O)CCN(CC(=O)O)CCN(CC(=O)O)CC2)C(=O)NCCCC[C@@H]2NC(=O)[C@@H](Cc3ccccc3)NC(=O)[C@H](CC(=O)O)NC(=O)CNC(=O)[C@H](CCCNC(=N)N)NC2=O)NC(=O)[C@@H](Cc2ccccc2)NC(=O)[C@H](CC(=O)O)NC(=O)CNC1=O [indium-111 labelled]", "system": "female BALB/c nude mice, SK-RC-52 xenograft, tumour", "setting": "0.5 µg, 2 h post injection, together with: excess unlabelled DOTA-E-[c(RGDfK)]2 50 µg", "quantity": "radioactivity concentration", "value": "decreased"}
{"Compound": "C=C(c1ccc(C(=O)O)c(F)c1)c1cc2c(cc1C)C(C)(C)C=CC2(C)C", "system": "Sprague-Dawley rat, male, plasma", "setting": "oral, 100 mg/kg, 6 h, sesame oil vehicle", "quantity": "HDL level", "value": "58 ± 11 mg/dL"}
{"Compound": "C[C@H](CN(C)Cc1ccccc1)NC(=O)c1ccc(-c2noc(C(F)(F)[18F])n2)cc1", "assay": "PET", "system": "Sprague-Dawley rat, female, hippocampus and cerebellum", "setting": "intravenous, 1 min", "how to read": "relative to: hippocampus SUV over cerebellum SUV", "quantity": "hippocampus-to-cerebellum ratio", "value": "0.79 ± 0.91"}
{"Compound": "CC/C=C\\C/C=C\\C/C=C\\C/C=C\\C/C=C\\CCCCOC(CC)C(=O)O (stereo not drawn)", "assay": "radioactivity, 14C-labelled", "system": "Wistar rat, male, subcutaneous fat", "setting": "oral, 100 mg/kg, 1 h", "quantity": "tissue concentration", "value": "9 µg equivalents/g tissue"}
{"Compound": "CC(C)C[C@@H](NC(=O)[C@H](NC(=O)[C@H]1CCCN1)[C@H](C)O)C(=O)N[C@H](Cc1c[nH]cn1)C(=O)N[C@@H](C(=O)N[C@H](Cc1c[nH]cn1)C(=O)N[C@H](CC(N)=O)C(=O)N[C@H](CCCNC(=N)N)C(=O)N[C@H](CCCNC(=N)N)C(=O)N[C@H](CCCNC(=N)N)C(=O)N[C@H](CCCNC(=N)N)C(=O)N[C@H](CCCNC(=N)N)C(N)=O)[C@H](C)O", "system": "beagle dog, plasma", "setting": "oral, 20 mg/kg, single dose", "quantity": "AUC(0-t)", "value": "3340 ng·h/mL"}
{"Compound": "CCN(CC)c1ccc2c(-c3ccc(S(=O)(=O)NCCNC(=O)CN4CCN(CC(=O)[O-])CCN(CC(=O)O)CCN(CC(=O)[O-])CC4)cc3S(=O)(=O)[O-])c3ccc(=[N+](CC)CC)cc-3oc2c1.[64Cu+2]", "system": "nude mice, U-87 MG xenograft", "setting": "dose not given, 1 h post-injection", "how to read": "relative to: injected dose", "quantity": "radioactivity in urine", "value": "> 65%"}
{"note": "Repeated from above:"}
{"Compound": "N=C(N)NCCC[C@@H]1NC(=O)[C@H](Cc2c[nH]c3ccccc23)NC(=O)[C@@H](CC2CCCCC2)NC(=O)[C@@H]2CCCN2C(=O)[C@@H](NC(=O)CCc2ccccc2)CCCNC1=O", "system": "C57BL/6J mice, spinal cord", "setting": "intraperitoneal, 1 mg/kg, two-compartment model", "quantity": "apparent peripheral volume (V2/F)", "value": "0.14 µg/(ng/g)"}
